Results collected from several papers.
A part holds a random share of what one study measured.

Block 1
Target: Interferon regulatory factor 7, full length, phosphomimetic (IRF7, Homo sapiens, UniProt Q92985, residues 1-503, S471D/S472D/S475D/S476D/S477D/S483D/S484D/S487D)
Technique: protein-binding microarray
Molecule type: double-stranded DNA, one strand shown
Matrix: in vitro
Tested at: 2200 nM top
Setting: 60-bp whole probe
Added: salmon DNA 0.4 mg/ml
Relative to: random background probes
Direction: higher = stronger binding
All sequences stand within: GCCTAGCAC … GTCTTGATTCGCTTGACGCTGCTG
Target sequence (chain): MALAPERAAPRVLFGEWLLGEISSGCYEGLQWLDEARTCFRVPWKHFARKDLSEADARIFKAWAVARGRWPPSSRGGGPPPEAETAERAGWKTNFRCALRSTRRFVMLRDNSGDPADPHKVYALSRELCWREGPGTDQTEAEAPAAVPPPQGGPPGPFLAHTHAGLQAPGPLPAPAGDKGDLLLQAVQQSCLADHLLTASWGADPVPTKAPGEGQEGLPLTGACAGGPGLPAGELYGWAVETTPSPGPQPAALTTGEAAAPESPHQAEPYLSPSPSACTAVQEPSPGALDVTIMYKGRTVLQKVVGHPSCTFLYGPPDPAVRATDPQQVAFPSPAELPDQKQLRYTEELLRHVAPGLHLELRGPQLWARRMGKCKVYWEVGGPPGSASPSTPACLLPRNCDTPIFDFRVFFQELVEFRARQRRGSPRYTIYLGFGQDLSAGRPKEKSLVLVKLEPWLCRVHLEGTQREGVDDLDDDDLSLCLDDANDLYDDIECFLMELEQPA
For `TTAGATCTCAGACTCGATTAGTGCTAG`, “fitted relative affinity” read 0.0814 z-score.
`TTGGGTTTCGGGTATCGGTTAGTGCTA`: “fitted relative affinity” 5.1 z-score.
For `TCAATTCTGCTTTGCAAACTGTGCTAG`, “fitted relative affinity” read 0.937 z-score.
Under “fitted relative affinity”, `GACGGACTGCTACTGCTCACGTGCTAG` is recorded as -0.135 z-score.
Under “fitted relative affinity”, `TCAATAATGGATATATAACTGTGCTAG` is recorded as -0.245 z-score.
Under “fitted relative affinity”, `TCAGCTTTAGTCATTCACACTGTGCTA` is recorded as 0.362 z-score.
For `GACGAAGTGGGGTTTCGAGACGTGCTA`, “fitted relative affinity” read 1.03 z-score.
For `GACGGACCGGACACTGGGGACGTGCTA`, “fitted relative affinity” read -1.03 z-score.
`TCACATATAATTTTGTCATCGTGCTAG` — result for “fitted relative affinity”: 0.814 z-score.
`ACTTCCCTCGGGTTGCGGAGCGTGCTA`: “fitted relative affinity” 1.81 z-score.
`GACGGTTTCTGTATCGGGACGTGCTAG` — result for “fitted relative affinity”: 2.92 z-score.
Under “fitted relative affinity”, `TTAAATCTCAGTATCGATTAGTGCTAG` is recorded as 0.181 z-score.
For `AAGGATTTCAGTTTCTCTTTGTGCTAG`, “fitted relative affinity” read 5.96 z-score.
`TCAATTCTCTTCTTGCAACTGTGCTAG`: “fitted relative affinity” 1.58 z-score.
Under “fitted relative affinity”, `GACGGTCCCCTACTGCTGACGTGCTAG` is recorded as 0.155 z-score.
`TTAGAACAGAGACTGGATTAGTGCTAG` — result for “fitted relative affinity”: -0.883 z-score.
`TCACCTTGCATGTTTTTGACTGTGCTA` — result for “fitted relative affinity”: 1.58 z-score.
For `TTAGGTATCGACTTTCGTTTAGTGCTA`, “fitted relative affinity” read 5.62 z-score.
`GACGGACTGGGGTTTCGGCACGTGCTA` — result for “fitted relative affinity”: -0.389 z-score.
`GACGATATCAGAATGGAGACGTGCTAG`: “fitted relative affinity” -0.282 z-score.
`GACGGTTTCGGCTTCGGGACGTGCTAG` — result for “fitted relative affinity”: 5.46 z-score.
`GCCGAACTGAGTATCGAGACGTGCTAG` — result for “fitted relative affinity”: -0.0165 z-score.
`GACGGAGTGCTTTTCCTGACGTGCTAG` — result for “fitted relative affinity”: 0.798 z-score.
`AACGATTTCAGACTGGAGACGTGCTAG` — result for “fitted relative affinity”: 0.173 z-score.
For `TCATGTCTGGGCTTTTTCACTGTGCTA`, “fitted relative affinity” read 0.46 z-score.

Block 2
Target: Ras GTPase-activating protein-binding protein 1, full length (G3BP1, Homo sapiens, UniProt Q13283)
Sequence of UniProt Q13283 (whole entry, looked up): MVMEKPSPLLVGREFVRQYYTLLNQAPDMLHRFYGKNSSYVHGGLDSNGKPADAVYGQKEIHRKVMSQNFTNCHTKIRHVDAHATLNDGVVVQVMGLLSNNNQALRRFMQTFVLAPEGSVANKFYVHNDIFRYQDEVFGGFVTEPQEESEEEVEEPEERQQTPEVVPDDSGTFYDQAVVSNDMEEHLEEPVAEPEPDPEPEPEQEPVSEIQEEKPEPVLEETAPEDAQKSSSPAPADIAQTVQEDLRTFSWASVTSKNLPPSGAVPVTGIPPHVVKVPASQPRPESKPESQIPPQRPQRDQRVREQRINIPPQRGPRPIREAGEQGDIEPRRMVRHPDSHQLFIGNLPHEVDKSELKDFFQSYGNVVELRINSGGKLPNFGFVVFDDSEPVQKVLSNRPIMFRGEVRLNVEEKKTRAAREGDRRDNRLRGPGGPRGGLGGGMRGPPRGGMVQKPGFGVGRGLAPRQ
Technique: RNA Bind-n-Seq
Molecule type: RNA
Matrix: in vitro
Tested at: 200 nM
Setting: whole 134-nt RNA, ends assumed
Added: 150 mM LiCl
Relative to: input library
Direction: higher = stronger binding
All molecules: 7-deaza-guanosine replaces G
With `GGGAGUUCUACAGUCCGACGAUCUCCUGUGCUACACAUCGUAUGUACCGAAUCGGCCCCCGGGGCCCCCGGGGCCCCCGGGGAAAGUAUUAUGUUACGCCGUUCGGAUCUGCAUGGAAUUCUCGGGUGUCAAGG` the log2 enrichment was -2.18.
The log2 enrichment of `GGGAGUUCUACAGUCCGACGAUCUCCUGUGCUACACAUCGUAUGUACCGAAUCAAACCCCCAAAUUUUUAAACCCCCCCAAAAAAGUAUUAUGUUACGCCGUUCGGAUCUGCAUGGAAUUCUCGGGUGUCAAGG` is reported as 1.29.
The log2 enrichment of `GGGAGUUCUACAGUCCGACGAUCUGGGAGGUGGAUUUUGUUUAUUUUUUUAGCUAAUUUCCAGGGGUGGGAAUUUUUUUUUAAUAUGUGUCAUGAAUAAAGUUGUUUUUGAAAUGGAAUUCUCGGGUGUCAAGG` is reported as -0.19.
With `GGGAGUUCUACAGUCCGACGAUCCCUCAAGUCCUGUGCUACACAUCGUAUGUACCGAAUCGGGAGGGGAGGGGAGGAAAGUAUUAUGUUACGCCGUUCGGAUCUGCACUUCCAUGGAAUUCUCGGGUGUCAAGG` the log2 enrichment was -0.0431.
`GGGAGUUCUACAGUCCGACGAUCGCAGGAAGUAAAAACAAAUGGAAAUGCUUCGGAUAGUGGCAGGGGUGGGGGUUGCUAAGGAAAGGGUGGGAUGGUAGUGGGUAAAGAGUUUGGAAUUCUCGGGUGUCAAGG` gave a log2 enrichment of 0.146.
With `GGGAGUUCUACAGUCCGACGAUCCACAGACAACACGCACCCACACAGACACAGAGGGAAGGGGUUGGGAUGGGUACAGGGUGCACAGCAGGGCGGGGUAGGACCCCAGCCCCUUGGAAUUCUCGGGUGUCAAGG` the log2 enrichment was 0.252.
With `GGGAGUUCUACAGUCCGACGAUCUUAGAUGAGGACCUUGAGAUUGAAUUGGUUGAGGAAGAGCCUCCAUUCCUGAGAGGGCACACUAAGCAAAGCAUGGACAUGAGCCCCAUUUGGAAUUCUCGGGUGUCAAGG` the log2 enrichment was -1.37.
The log2 enrichment of `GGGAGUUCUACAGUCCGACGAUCAAGUCCUGUGCUACACAUCGUAUGUACCGAAUCGGCCCCGGGGCCCCGGGGCCCCGGAAAGUAUUAUGUUACGCCGUUCGGAUCUGCACUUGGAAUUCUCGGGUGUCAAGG` is reported as -2.15.
The log2 enrichment of `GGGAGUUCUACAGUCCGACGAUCGUCCUGUGCUACACAUCGUAUGUACCGAAUCGGGAAAAAAAGGGAAAAAGGGAAAGGGAAAGUAUUAUGUUACGCCGUUCGGAUCUGCACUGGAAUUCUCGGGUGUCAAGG` is reported as -0.171.
For `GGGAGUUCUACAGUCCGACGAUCUCAAGUCCUGUGCUACACAUCGUAUGUACCGAAUCGGGGAAAGGAAAGGGAAAGGAAAGUAUUAUGUUACGCCGUUCGGAUCUGCACUUCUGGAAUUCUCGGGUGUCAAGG`, the log2 enrichment was -0.2.
The log2 enrichment of `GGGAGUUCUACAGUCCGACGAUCCCUGUGCUACACAUCGUAUGUACCGAAUCGGCCCCCCCGGCCCCCCCGGCCCCCCCGGGGAAAGUAUUAUGUUACGCCGUUCGGAUCUGCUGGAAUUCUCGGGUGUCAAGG` is reported as 0.278.

Block 3
Target: RNA binding protein fox-1 homolog 2, RRM domain, GST-SBP tag (RBFOX2, Homo sapiens, UniProt O43251-10, residues 100-194)
Technique: RNA Bind-n-Seq
Molecule type: RNA
Matrix: in vitro
Tested at: 365 nM
Setting: natural RNA segment, single round, ends assumed
Relative to: no-protein control
Direction: higher = stronger binding
Target sequence (chain): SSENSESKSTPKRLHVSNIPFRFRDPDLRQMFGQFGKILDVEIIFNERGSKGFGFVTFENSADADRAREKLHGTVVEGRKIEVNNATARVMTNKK
Under “RBNS enrichment (R)”, `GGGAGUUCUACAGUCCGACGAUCUUUGCCUUCAAAAAUGUGCUGCCUAGAAACAGACCUGCAUUCAACCAACUGUAAUGCAGGAUUGGACCAUGAAUGAUAUGCUAGAAUAGAAGAAAGAGAAGUGUUUUUUUUGGAAUUCUCGGGUGCCAA` is recorded as 0.528.
For `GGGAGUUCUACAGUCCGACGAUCUAGGACAGUGGUGACCUUGUCUGUGCCGGUGACUGCACCCUGCAGGUAACAGUGAAAGCUUUUAAGCCUCUGAGCCUCGAGACUGGGGAGAUUGAGUUUAUACCCCCUAGUGGAAUUCUCGGGUGCCAA`, “RBNS enrichment (R)” read 0.423.
`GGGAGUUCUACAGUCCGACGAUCAGUGUAUCAAAAAUUGAUGGGAUAUUAGUGUUAGGUUUUGCUUAAAUGAAAAUUAAUAAAUUCAAAAAUACUAAAAGUCACCUUCUUUGUCACGUUAGCAACCAGUUUCUUGGAAUUCUCGGGUGCCAA` — result for “RBNS enrichment (R)”: 0.329.
For `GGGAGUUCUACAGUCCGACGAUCGGAGCUGGCCCCUGGCUGCCUGGAGGACCCUGGGUAGGUCCUGAGGGUGGGAUGGAGAAGAGGGCACUGCUGUGGUGUGGGAGCAGUCCUGGGGCUUCCUGGUGGCUGUGUGGAAUUCUCGGGUGCCAA`, “RBNS enrichment (R)” read 0.641.
`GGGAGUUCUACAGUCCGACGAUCGGUAGCUACCUCAUAACUUGUAAAGAAUCCAAUGAAUUAAAACACAGGUCUCAGUAUUAGCUUGUAUUACUGUACUAUCGAGUCCAUACACGGCUCUCUAAAGCCCUACAUGGAAUUCUCGGGUGCCAA`: “RBNS enrichment (R)” 1.54.
Under “RBNS enrichment (R)”, `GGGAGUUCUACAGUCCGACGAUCAGUGUGAGUUUUGUCACAUUCUGGGCAGGUAGAGACGUGAAUGCUCUGUGGACCCUCCCCCUCUCCCAACCUAGGCCUGUCUGGCAUGCUGCAAGGACCAGAGCCAGCCCUGGAAUUCUCGGGUGCCAA` is recorded as 3.97.
For `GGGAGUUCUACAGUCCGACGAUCGGUUUGCUGAAACUGACAGAGCCUGGGCUCCAGACCUCUCUCCCUCCUACAGUGCUCUCCCUCCCUGGGCAGAUUGGCAGGACAAGUGGGAGCAGAUGGCCUGCCUUUGGUGGAAUUCUCGGGUGCCAA`, “RBNS enrichment (R)” read 0.752.
Under “RBNS enrichment (R)”, `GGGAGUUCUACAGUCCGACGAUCUUGAUAGCAUAGACUGGUCACCCUGGACGUGCUUCAAGGUACUGUUCCCACUGAGCCUGUGCUUGCAUGACUACAUUGAGGAGAGAGAUGGUACCGGGGGUGGGGCUGUCUGGAAUUCUCGGGUGCCAA` is recorded as 7.98.
Under “RBNS enrichment (R)”, `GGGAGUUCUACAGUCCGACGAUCCUAUUUUCUUUUAAUCUGGAUCUUUUGAGGUAAGAAGAUCCACCUUUAGUCAGGGCCACACCUUCUGAUGGCAUUCAAAUAUAAGGCUGUGGAAGAAGGAAGCUUUUGCGUGGAAUUCUCGGGUGCCAA` is recorded as 0.395.

Block 4
Target: Histone acetyltransferase KAT6A, winged helix 2, GST fusion (KAT6A, Homo sapiens, UniProt Q92794, residues 85-181)
Technique: protein binding microarray
Molecule type: double-stranded DNA, one strand shown
Matrix: in vitro
Tested at: not given
Setting: 8-mer, flanks averaged, mean of 2 arrays, mostly near background
Relative to: not given
Direction: higher = stronger binding
Construct (chain): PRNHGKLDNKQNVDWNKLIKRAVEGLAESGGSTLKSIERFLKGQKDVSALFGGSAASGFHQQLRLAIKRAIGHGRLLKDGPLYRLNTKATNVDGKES
`ACTTGGTC` gave an E-score of 0.0919.
`GAGTAATC` has an E-score of 0.0839.
With `ATCAGCTC` the E-score was 0.113.
`AACAACCT` gave an E-score of -0.165.
For `CGAGCTCG`, the E-score was 0.362.
With `AGTAGAAC` the E-score was -0.137.
`CATTAATA` has an E-score of 0.108.
For `AAGTTACG`, the E-score was 0.0268.
For `CATGGACG`, the E-score was 0.0249.
`ATAGGTAG` gave an E-score of -0.296.
For `TGAGTCAA`, the E-score was -0.0875.
The E-score of `CGTCTCCA` is reported as 0.0714.
`CCGATCGC` gave an E-score of -0.000655.
For `CTAGCCAC`, the E-score was -0.106.
`ATACTAAC` has an E-score of -0.0519.
For `GCGGGCTA`, the E-score was 0.0962.
`TCTTAAGA` has an E-score of 0.0454.
`ATACTGCA` has an E-score of 0.0736.
`AGTGGGTG` gave an E-score of 0.127.
`ACATTCAC` gave an E-score of -0.14.
`ACACCTCC` has an E-score of -0.0768.
`AGAGGACG` gave an E-score of 0.0859.
With `CCATGTAA` the E-score was -0.209.
`ACCTGTCC` gave an E-score of -0.101.
For `ATGGATCC`, the E-score was -0.0671.

Some of these lines once more (block 4):
With `ATCAGCTC` the E-score was 0.113.
`AACAACCT` gave an E-score of -0.165.
For `CGAGCTCG`, the E-score was 0.362.
With `AGTAGAAC` the E-score was -0.137.
`CATTAATA` has an E-score of 0.108.
For `AAGTTACG`, the E-score was 0.0268.
For `CATGGACG`, the E-score was 0.0249.
`ATAGGTAG` gave an E-score of -0.296.
